{"data": "Published values from different studies", "note": "Every numbered part comes from another study and shows a few of its results, in no order."}
{"data": "Study 1", "target": "Histone acetyltransferase KAT6A, both winged helices, GST fusion (KAT6A, Homo sapiens, UniProt Q92794, residues 1-181)", "method": "protein binding microarray", "molecule type": "double-stranded DNA, one strand shown", "medium": "in vitro", "concentration": "not given", "notes": "8-mer, flanks averaged, mean of 2 arrays, mostly near background", "reference": "not given", "direction": "higher = stronger binding", "Residues (chain)": "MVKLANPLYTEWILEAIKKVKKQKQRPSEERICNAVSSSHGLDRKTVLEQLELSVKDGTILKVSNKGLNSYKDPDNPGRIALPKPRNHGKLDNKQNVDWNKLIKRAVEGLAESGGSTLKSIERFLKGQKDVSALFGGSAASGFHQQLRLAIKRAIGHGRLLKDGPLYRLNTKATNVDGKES"}
{"Sequence": "ATCGTGTA", "E-score": -0.13}
{"Sequence": "AGTTTCAT", "E-score": -0.126}
{"Sequence": "CGCTCCCG", "E-score": 0.256}
{"Sequence": "CGACCGCA", "E-score": 0.234}
{"Sequence": "GTCAAAAA", "E-score": -0.0895}
{"Sequence": "GAAACCTA", "E-score": -0.0401}
{"data": "Study 2", "target": "Interferon regulatory factor 7, full length, phosphomimetic (IRF7, Homo sapiens, UniProt Q92985, residues 1-503, S471D/S472D/S475D/S476D/S477D/S483D/S484D/S487D)", "method": "protein-binding microarray", "molecule type": "double-stranded DNA, one strand shown", "medium": "in vitro", "concentration": "2200 nM top", "notes": "60-bp whole probe", "added": "salmon DNA 0.4 mg/ml", "reference": "random background probes", "direction": "higher = stronger binding", "all sequences stand within": "GCCTAGCAC … GTCTTGATTCGCTTGACGCTGCTG", "Residues (chain)": "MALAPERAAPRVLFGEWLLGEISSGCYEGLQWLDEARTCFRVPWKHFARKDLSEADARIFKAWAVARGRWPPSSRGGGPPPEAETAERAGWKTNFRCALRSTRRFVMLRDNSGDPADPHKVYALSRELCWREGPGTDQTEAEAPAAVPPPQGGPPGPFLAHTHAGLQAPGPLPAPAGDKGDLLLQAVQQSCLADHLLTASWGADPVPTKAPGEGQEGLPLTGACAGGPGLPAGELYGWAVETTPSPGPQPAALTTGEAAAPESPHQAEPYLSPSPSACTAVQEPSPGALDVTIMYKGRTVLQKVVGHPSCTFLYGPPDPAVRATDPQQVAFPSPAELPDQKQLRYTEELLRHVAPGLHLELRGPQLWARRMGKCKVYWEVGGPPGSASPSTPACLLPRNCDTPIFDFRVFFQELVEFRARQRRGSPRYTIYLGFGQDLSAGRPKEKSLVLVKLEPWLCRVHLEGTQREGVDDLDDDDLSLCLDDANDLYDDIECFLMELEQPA"}
{"Sequence": "TCATGTCCCTATTTAAGACTGTGCTAG", "fitted relative affinity": "1.52 z-score"}
{"Sequence": "TCAGAGCTCTGTCTGGGACTGTGCTAG", "fitted relative affinity": "-0.42 z-score"}
{"Sequence": "TTAGGACTGGAGTATCGGTTAGTGCTA", "fitted relative affinity": "-0.274 z-score"}
{"Sequence": "CCTCATCTTCCTCTGCCACAGTGCTAG", "fitted relative affinity": "2.06 z-score"}
{"Sequence": "AACGATCTCAGACTGGAGACGTGCTAG", "fitted relative affinity": "0.0729 z-score"}
{"Sequence": "GACGGACTGGACTTTCGCGACGTGCTA", "fitted relative affinity": "0.593 z-score"}
{"data": "Study 3", "target": "Prothrombin, mature alpha-thrombin (F2, Homo sapiens, UniProt P00734)", "method": "aptamer microarray, sandwich", "molecule type": "DNA with 2'F-ANA", "medium": "in vitro", "concentration": "200 nM", "notes": "whole 15-mer aptamer, many near background", "added": "Cy3 exosite-II aptamer, 400 nM", "direction": "higher = stronger binding", "sequence": "GGTTGGTGTGGTTGG"}
{"Modification": "2'F-ANA at 3 5 6 11 12 15", "mean fluorescence intensity [a.u.]": 182}
{"Modification": "2'F-ANA at 2 4 5 7 8 11 12", "mean fluorescence intensity [a.u.]": 176}
{"Modification": "2'F-ANA at 1 4 5 6 7 8 9 10 13", "mean fluorescence intensity [a.u.]": 50}
{"Modification": "2'F-ANA at 1 6 8 9 11 12 13", "mean fluorescence intensity [a.u.]": 277}
{"Modification": "2'F-ANA at 1 4 6 7 8 10 12 13 14", "mean fluorescence intensity [a.u.]": 94.8}
{"data": "Further values, each from its own experiment"}
{"Substance": "PhoQ, residues 284 288 289 292 302 303 SNGLAW", "target": "PhoP, residues 12 14 15 18 19 NIMAP (Escherichia coli, UniProt P23836)", "test": "Sort-seq, item: YFP reporter", "test system": "E. coli", "setting": "PhoQ-PhoP variant library, added: 10 µM Mg2+", "scale": "reference: high Mg2+ state, higher = stronger signaling", "measurement": "fold induction", "value": 0.995}
{"note": "For quick reference, copied from above (study 3):"}
{"Modification": "2'F-ANA at 1 6 8 9 11 12 13", "mean fluorescence intensity [a.u.]": 277}
